Results from different studies.
A part holds a random share of what one study measured.
UniProt O94804, sequence (whole entry, looked up): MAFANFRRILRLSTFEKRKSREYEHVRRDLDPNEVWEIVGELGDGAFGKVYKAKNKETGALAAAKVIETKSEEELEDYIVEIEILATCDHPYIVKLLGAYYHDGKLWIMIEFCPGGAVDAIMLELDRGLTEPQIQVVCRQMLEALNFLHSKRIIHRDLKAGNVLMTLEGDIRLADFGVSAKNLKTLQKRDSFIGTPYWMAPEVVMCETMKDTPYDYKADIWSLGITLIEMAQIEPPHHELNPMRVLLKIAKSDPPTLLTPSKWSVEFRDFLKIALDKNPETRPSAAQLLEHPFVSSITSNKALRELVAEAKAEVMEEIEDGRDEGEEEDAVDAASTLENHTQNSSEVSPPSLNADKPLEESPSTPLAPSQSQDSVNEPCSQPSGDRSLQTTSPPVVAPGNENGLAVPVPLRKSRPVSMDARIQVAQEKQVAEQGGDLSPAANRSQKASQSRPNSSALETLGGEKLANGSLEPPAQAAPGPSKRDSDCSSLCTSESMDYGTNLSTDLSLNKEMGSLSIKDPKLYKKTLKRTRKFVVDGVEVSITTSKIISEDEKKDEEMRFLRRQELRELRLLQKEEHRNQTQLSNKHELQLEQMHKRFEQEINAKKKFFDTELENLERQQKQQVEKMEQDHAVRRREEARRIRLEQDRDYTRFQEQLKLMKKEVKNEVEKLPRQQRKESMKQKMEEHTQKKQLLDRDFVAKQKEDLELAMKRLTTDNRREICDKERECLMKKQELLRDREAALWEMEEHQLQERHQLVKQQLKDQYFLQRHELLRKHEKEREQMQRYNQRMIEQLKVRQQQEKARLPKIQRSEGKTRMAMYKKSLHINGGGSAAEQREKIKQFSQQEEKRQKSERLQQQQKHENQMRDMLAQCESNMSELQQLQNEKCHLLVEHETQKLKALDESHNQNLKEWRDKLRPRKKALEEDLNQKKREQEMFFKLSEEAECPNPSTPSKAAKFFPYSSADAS
UniProt Q00535, sequence (whole entry, looked up): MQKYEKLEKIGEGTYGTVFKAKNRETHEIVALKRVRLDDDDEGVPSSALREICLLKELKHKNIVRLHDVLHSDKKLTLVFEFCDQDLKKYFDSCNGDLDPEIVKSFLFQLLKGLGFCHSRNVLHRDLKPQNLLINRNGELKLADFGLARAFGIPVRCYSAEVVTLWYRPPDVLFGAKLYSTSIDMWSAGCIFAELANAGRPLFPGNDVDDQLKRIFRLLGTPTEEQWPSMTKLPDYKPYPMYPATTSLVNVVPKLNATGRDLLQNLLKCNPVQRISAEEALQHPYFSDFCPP
UniProt O95747, sequence (whole entry, looked up): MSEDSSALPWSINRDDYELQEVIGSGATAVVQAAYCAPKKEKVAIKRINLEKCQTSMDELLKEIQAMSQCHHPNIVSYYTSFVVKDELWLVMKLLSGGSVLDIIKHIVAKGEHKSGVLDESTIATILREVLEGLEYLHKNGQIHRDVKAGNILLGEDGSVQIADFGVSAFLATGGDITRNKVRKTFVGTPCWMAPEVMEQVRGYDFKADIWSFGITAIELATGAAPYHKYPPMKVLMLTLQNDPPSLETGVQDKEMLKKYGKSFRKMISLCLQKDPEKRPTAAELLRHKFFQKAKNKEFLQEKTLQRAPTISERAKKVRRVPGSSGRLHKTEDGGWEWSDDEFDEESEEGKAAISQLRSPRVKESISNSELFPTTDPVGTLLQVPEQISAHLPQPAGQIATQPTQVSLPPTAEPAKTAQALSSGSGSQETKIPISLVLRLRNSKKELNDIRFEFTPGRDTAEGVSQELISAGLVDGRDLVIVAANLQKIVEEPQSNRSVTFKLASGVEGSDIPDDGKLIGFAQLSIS
UniProt Q52WX2, sequence (whole entry, looked up): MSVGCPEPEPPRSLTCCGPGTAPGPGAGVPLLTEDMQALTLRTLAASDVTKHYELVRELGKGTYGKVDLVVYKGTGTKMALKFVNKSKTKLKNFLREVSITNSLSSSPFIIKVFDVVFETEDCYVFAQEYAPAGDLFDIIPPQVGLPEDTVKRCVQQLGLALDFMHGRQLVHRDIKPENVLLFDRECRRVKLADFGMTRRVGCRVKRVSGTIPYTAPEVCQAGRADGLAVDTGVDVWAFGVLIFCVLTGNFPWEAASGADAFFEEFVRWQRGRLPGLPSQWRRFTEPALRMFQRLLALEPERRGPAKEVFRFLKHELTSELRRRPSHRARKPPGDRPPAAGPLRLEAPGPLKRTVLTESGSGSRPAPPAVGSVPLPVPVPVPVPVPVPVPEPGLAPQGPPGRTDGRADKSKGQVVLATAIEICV
UniProt Q9Y6R4, sequence (whole entry, looked up): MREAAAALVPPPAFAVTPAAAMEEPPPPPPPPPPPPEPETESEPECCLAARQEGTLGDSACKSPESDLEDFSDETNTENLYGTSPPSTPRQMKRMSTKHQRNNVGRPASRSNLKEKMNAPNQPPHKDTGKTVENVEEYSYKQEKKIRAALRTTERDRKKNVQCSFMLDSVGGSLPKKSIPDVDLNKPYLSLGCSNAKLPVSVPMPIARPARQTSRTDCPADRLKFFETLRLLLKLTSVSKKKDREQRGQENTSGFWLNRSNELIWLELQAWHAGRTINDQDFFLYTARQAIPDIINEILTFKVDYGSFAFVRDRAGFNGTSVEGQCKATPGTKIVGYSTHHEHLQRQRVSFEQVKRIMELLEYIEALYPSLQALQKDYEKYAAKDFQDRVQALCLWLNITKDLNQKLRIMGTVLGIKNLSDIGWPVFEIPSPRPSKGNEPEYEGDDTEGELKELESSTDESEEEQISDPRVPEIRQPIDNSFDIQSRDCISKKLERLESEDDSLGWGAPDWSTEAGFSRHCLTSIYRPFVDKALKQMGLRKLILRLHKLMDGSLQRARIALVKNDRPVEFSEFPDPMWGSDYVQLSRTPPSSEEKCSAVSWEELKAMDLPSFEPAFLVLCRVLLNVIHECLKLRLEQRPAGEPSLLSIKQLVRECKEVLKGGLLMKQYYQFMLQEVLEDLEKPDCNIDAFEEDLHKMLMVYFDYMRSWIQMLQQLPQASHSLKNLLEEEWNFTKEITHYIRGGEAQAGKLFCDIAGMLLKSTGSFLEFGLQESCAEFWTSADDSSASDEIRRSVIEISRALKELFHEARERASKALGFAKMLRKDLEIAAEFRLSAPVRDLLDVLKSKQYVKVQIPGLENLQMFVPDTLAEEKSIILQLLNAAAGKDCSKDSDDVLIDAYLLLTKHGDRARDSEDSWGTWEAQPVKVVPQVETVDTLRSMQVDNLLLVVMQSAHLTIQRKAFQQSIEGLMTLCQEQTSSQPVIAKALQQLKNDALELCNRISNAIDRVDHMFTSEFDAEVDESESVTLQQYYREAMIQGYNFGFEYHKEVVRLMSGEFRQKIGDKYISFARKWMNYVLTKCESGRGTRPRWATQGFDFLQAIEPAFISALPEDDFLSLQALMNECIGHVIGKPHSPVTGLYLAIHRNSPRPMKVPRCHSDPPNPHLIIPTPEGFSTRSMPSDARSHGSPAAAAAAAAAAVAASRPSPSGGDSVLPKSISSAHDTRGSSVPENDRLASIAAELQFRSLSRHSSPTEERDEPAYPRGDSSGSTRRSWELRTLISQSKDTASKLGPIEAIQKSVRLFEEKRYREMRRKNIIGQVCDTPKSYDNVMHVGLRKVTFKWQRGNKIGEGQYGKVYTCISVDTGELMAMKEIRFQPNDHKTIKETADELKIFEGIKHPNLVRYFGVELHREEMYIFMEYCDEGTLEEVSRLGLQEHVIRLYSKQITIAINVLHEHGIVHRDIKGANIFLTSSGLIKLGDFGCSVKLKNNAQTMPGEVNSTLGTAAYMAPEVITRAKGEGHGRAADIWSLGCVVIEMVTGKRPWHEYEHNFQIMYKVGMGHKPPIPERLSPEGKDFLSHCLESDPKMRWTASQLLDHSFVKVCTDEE
UniProt Q9H0K1, sequence (whole entry, looked up): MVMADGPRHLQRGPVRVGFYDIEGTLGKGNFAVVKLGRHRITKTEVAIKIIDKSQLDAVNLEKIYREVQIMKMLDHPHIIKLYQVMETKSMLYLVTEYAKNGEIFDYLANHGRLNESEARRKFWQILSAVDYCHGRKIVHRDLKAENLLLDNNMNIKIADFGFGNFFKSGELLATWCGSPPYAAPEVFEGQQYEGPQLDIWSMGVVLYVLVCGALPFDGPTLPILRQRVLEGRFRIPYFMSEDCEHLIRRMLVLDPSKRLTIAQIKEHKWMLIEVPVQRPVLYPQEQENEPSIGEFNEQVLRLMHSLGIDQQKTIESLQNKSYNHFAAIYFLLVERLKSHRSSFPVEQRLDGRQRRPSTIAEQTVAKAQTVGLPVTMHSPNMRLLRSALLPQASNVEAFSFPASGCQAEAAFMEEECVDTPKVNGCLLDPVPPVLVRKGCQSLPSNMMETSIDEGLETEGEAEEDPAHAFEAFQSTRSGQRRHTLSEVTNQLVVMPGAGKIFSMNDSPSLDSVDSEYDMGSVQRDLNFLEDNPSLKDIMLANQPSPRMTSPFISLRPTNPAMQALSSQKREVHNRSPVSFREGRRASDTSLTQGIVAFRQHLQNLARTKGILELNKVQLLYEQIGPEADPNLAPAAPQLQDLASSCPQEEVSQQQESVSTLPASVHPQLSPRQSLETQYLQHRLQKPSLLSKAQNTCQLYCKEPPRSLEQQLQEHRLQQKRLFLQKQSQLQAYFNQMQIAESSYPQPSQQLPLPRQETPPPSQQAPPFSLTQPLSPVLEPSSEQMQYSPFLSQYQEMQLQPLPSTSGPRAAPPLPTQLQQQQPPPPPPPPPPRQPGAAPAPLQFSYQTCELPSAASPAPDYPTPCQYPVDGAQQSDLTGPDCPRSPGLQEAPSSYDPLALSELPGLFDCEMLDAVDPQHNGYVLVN
UniProt P11802, sequence (whole entry, looked up): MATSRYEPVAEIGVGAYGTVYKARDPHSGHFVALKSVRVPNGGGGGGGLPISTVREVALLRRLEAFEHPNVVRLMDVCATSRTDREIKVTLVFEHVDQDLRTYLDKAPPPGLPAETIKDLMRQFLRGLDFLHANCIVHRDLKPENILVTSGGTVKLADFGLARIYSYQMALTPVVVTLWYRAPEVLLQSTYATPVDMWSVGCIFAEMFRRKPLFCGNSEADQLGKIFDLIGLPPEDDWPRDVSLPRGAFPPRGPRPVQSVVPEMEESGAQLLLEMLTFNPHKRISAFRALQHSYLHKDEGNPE

Set 1 — read-out: enzyme activity; action: inhibitor; tested at: 0.5 µM; baseline: control; endpoint: remaining activity
Structure (SMILES): O=C(NC(NC(=S)Nc1ccc(F)c([N+](=O)[O-])c1)C(Cl)(Cl)Cl)C(c1ccccc1)c1ccccc1 (centres unmarked)
TGFBR2 (Homo sapiens, UniProt P37173): 91.6%
OXSR1 (Homo sapiens, UniProt O95747): 98.3%
GRK3 (Homo sapiens, UniProt P35626): 98.3%
MAPK9 (Homo sapiens, UniProt P45984): 88.6%
STK10 (Homo sapiens, UniProt O94804): 108%
Cyclin-dependent kinase 5, with p25 (CDK5, Homo sapiens, UniProt Q00535): 96.8%
DAPK2 (Homo sapiens, UniProt Q9UIK4): 103%
cGMP-dependent protein kinase 1, isoform beta (PRKG1, Homo sapiens, UniProt Q13976): 109%
Cyclin-dependent kinase 4, with cyclin D1 (CDK4, Homo sapiens, UniProt P11802): 116%
CAMKK2 (Homo sapiens, UniProt Q96RR4): 126%
CHEK2 (Homo sapiens, UniProt O96017): 97.6%

Set 2 — species: mouse; medium: microsomes or S9; tested at: 2 µM; time: 0.5 h; endpoint: remaining compound
CC(C)CCN1CC2(CCCN(C(=O)c3ccc(=O)n(C)n3)C2)CCC1=O (centres unmarked): 56.4%
CCOc1cc(=O)n2c(c1C(=O)NCc1ccc3c(c1)OCO3)CCCC2: 58.2%
O=C(NC1CCN(CCc2ccc(F)cc2)CC1)c1cc2ccccc2s1: 19.5%
COc1cc(C2CC(=O)Oc3cc4c(c(OC)c32)C(=O)O[C@@H](C)CCCC(=O)CCC/C=C/4)cc2c1OCCO2 (some centres unmarked): 9.22%
O=C(c1ccc(Cl)s1)N1CCCn2nc(-c3ccncc3)cc2C1: 39%
Cc1ccc(N(CCO)C2=NS(=O)(=O)c3ccccc32)cc1: 17%
CCc1ccc(/C=N/n2c(C)nnc2-n2nc(C)cc2C)cc1: 0.0477%
CCCCOC(=O)c1ccc(NC(=O)c2c(OCC)cc(=O)n3c2CCCC3)cc1: 0.555%

Set 3 — cell line: HaCaT; tested at: 100 µM; time: 36 h; endpoint: viability
O=P(O)(O)C(O)(Cn1ccnc1)P(=O)(O)O: 25.1%
N=C(N)c1ccc2cc(OC(=O)c3ccc(N=C(N)N)cc3)ccc2c1: 97.3%
CC1CCc2c(N3CCC(O)CC3)c(F)cc3c(=O)c(C(=O)O)cn1c23 (centres unmarked): 92.7%
CN(C)CCC(c1ccc(Br)cc1)c1ccccn1 (centres unmarked): 53.1%
Cc1cccc(N(C)C(=S)Oc2ccc3ccccc3c2)c1: 83.4%
[H]/N=C(/N)N/C(=N/[H])NCCc1ccccc1: 80.9%

Set 4 — method: competition with immobilised ligand; tested at: 1 µM; endpoint: remaining binding
SMILES: COc1cc(-c2cn(C3CCc4ccccc4N(CC(F)(F)F)C3=O)nn2)ccc1-n1ccc(C)n1 (centres unmarked)
FLT3 (Homo sapiens, UniProt P36888, D835V/ITD); cell-free assay: 99%
SBK1 (Homo sapiens, UniProt Q52WX2); cell-free assay: 94%
EGFR (Homo sapiens, UniProt P00533, L858R); cell-free assay: 97%
SRPK1 (Homo sapiens, UniProt Q96SB4); cell-free assay: 100%
MAP2K1 (Homo sapiens, UniProt Q02750); cell-free assay: 100%
CDKL1 (Homo sapiens, UniProt Q00532); binding: 97%
MAP3K4 (Homo sapiens, UniProt Q9Y6R4); cell-free assay: 85%
DMPK (Homo sapiens, UniProt Q09013); cell-free assay: 96%
STK16 (Homo sapiens, UniProt O75716); cell-free assay: 100%
STK10 (Homo sapiens, UniProt O94804); cell-free assay: 100%
MELK (Homo sapiens, UniProt Q14680); cell-free assay: 96%
SIK2 (Homo sapiens, UniProt Q9H0K1); cell-free assay: 100%
FLT3 (Homo sapiens, UniProt P36888, D835H); cell-free assay: 100%
TTK (Homo sapiens, UniProt P33981); cell-free assay: 100%
MAP3K1 (Homo sapiens, UniProt Q13233); cell-free assay: 72%
BMPR2 (Homo sapiens, UniProt Q13873); cell-free assay: 100%
